Assay results of several laboratories.
Each numbered part is a random draw from the data of one study; scales do not carry over between parts. Positions count from the first letter of the parent shown.

Sample 1 — method: universal PBM; form: double-stranded DNA, one strand shown; medium: in vitro; concentration: not given; direction: higher = stronger binding
Target: Sal-like protein 4, full length isoform B (SALL4, Homo sapiens, UniProt Q9UJQ4-2, residues 1-616)
Setting: 8-mer, flanks averaged, mean of replicates
Target sequence (chain): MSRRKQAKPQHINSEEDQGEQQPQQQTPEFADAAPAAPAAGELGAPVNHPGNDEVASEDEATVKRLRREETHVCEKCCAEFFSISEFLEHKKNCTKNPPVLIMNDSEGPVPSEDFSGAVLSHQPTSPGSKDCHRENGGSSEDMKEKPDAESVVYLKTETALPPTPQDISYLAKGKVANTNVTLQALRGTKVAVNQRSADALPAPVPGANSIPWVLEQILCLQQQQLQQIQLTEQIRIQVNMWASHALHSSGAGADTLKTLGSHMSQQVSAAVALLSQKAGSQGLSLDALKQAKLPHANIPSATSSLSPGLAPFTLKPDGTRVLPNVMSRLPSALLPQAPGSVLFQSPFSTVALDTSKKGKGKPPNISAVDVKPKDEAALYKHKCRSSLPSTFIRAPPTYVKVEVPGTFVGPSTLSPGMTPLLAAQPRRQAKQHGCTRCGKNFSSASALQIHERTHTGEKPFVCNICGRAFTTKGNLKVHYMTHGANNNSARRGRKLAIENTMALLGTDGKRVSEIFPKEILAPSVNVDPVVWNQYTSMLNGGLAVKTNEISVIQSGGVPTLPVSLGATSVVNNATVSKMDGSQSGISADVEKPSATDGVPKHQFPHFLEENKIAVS
`CGCGGAAA` gave an E-score of -0.161.
`AATTACCC` has an E-score of 0.00881.
With `GATTCCCA` the E-score was 0.00072.
The E-score of `GAGGCTCA` is reported as -0.162.
`CTCACCCC` has an E-score of -0.252.
`AAGTCATC` has an E-score of 0.0796.
`CATCTGAC` gave an E-score of -0.0868.
For `GTCCAATA`, the E-score was 0.199.

Sample 2 — target: CCND3, cyclin fold, Cln2 fusion (human); method: yeast growth competition, sequencing; medium: yeast; setting: weak parent motif; baseline: not given; direction: higher = stronger binding
Starting sequence: viral docking peptide; KGVKRKLFAEDSS; partner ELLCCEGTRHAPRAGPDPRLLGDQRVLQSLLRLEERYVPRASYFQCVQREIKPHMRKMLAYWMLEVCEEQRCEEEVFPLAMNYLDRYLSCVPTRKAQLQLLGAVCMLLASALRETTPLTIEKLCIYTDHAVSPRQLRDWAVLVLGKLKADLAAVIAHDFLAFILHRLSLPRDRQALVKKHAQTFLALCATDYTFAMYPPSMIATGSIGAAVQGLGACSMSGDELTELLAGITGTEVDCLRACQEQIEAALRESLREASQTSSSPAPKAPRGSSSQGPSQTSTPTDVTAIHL
Under “normalised enrichment score”, `KGVKRKLFADDSS [E10D]` is recorded as 0.383.
Under “normalised enrichment score”, `KGVKRKMFAEDSS [L7M]` is recorded as 0.6.
For `AGVKRKLFAEDSS [K1A]`, “normalised enrichment score” read 0.19.
`KGYKRKLFAEDSS [V3Y]` — result for “normalised enrichment score”: 0.144.
`KGVKRKLFAEDPS [S12P]`: “normalised enrichment score” 0.36.
For `KGVKRCLFAEDSS [K6C]`, “normalised enrichment score” read -0.0194.
Under “normalised enrichment score”, `KGVKRKLFAENSS [D11N]` is recorded as -0.0511.
For `KGVKRTLFAEDSS [K6T]`, “normalised enrichment score” read 0.256.
For `KGVKKKLLAEDSS [R5K F8L]`, “normalised enrichment score” read 0.51.
`KGDKRKLFAEDSS [V3D]` — result for “normalised enrichment score”: -0.126.
Under “normalised enrichment score”, `KGVKRKLFYEDSS [A9Y]` is recorded as 0.0611.
`KGVKRKDFAEDSS [L7D]` — result for “normalised enrichment score”: 0.0111.
Under “normalised enrichment score”, `KGVKRQLFAEDSS [K6Q]` is recorded as 0.293.
Under “normalised enrichment score”, `KGVKRKLFAECSS [D11C]` is recorded as -0.0892.
For `KGVKRKLRAEDSS [F8R]`, “normalised enrichment score” read 0.317.
For `KGVKRKIFAEDSS [L7I]`, “normalised enrichment score” read 0.592.
`KGVKRKLFAEDKS [S12K]` — result for “normalised enrichment score”: 0.169.
For `KGLKRKLFAEDSS [V3L]`, “normalised enrichment score” read 0.312.
`KGVKRKLVAEDSS [F8V]`: “normalised enrichment score” 0.457.
Under “normalised enrichment score”, `KGVKRKLFAEDFS [S12F]` is recorded as -0.0352.
For `KGVMRKLFAEDSS [K4M]`, “normalised enrichment score” read -0.262.
`KKVKRKLFAEDSS [G2K]` — result for “normalised enrichment score”: 0.459.
`KGVKTKLFAEDSS [R5T]` — result for “normalised enrichment score”: 0.132.
For `KGVKRKLFMEDSS [A9M]`, “normalised enrichment score” read 0.232.
Under “normalised enrichment score”, `KGVKRWLFAEDSS [K6W]` is recorded as -0.464.

Sample 3 — observed: peptide-MHC binding; form: peptide; concentration: concentration not given
Target: HLA class I histocompatibility antigen, A alpha chain, allele A*26:03 (Homo sapiens, UniProt P04439)
Under binding, `DILASIIDY` is recorded as “inactive”.
For `KLYVNGKAY`, binding read “inactive”.
For `WHQARFEEL`, binding read “inactive”.
`YHLGGIEGL`: binding “inactive”.
Under binding, `YHRFGLYRL` is recorded as “inactive”.
For `RKWGLDFCY`, binding read “inactive”.
For `VLYCVHQHI`, binding read “inactive”.

Sample 4 — target: UBE2D4 UBC core domain (UniProt Q9Y2X8); method: yeast two-hybrid; medium: yeast; setting: mostly zero background; baseline: not given; direction: higher = stronger interaction
B1: RNF10 RING domain (UniProt Q8N5U6); chain VRICSHEVPSCPICLYPPTAAKITRCGHIFCWACILHYLSLSEKTWSKCPICYSSVHKKDLKS
B2: TRIM32 RING domain (UniProt Q13049); chain NLDALREVLECPICMESFTEEQLRPKLLHCGHTICRQCLEKLLASSINGVRCPFCSKITRITSLTQ
B3: RFPL3 RING domain (UniProt O75679); chain MAALFQEASSCPVCSDYLEKPMSLECGCTVCLKCINSLQKEPHGEDLLCCCCSMVSQRNKIRP
B4: SHPRH RING domain (UniProt Q149N8); chain KTSGGVNPEPCPICARQLGKQWAVLTCGHCFCNECISIIIEQYSVGSHRSSIKCAICRQTTSHKEISY
Residues (chain): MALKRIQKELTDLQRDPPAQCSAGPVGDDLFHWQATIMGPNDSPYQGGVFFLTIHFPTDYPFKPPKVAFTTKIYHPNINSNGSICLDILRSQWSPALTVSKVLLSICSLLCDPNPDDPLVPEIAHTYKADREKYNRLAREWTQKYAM
Under “lacZ reporter activity”, `KITELNPHLMCALCGGYFIDATTIVECLHSFCKTCIVRYLETNKYCPMCDVQVHKTRPLL (PCGF2 RING domain (UniProt P35227))` is recorded as 0.
Under “lacZ reporter activity”, `B1 (RNF10 RING domain)` is recorded as 0.
For `B2 (TRIM32 RING domain)`, “lacZ reporter activity” read 0.
`B3 (RFPL3 RING domain)` — result for “lacZ reporter activity”: 0.
For `B4 (SHPRH RING domain)`, “lacZ reporter activity” read 0.

Sample 5 — method: protein-binding microarray; form: hairpin DNA; medium: in vitro; concentration: not given; baseline: not given; direction: higher = stronger binding; shared flanks, not repeated: GAGGCCA … TGGCCTCACACTC
Target: Homeobox protein Hox-C11, full length (HOXC11, Homo sapiens, UniProt O43248, residues 1-304)
Chain of UniProt O43248 (whole entry, looked up): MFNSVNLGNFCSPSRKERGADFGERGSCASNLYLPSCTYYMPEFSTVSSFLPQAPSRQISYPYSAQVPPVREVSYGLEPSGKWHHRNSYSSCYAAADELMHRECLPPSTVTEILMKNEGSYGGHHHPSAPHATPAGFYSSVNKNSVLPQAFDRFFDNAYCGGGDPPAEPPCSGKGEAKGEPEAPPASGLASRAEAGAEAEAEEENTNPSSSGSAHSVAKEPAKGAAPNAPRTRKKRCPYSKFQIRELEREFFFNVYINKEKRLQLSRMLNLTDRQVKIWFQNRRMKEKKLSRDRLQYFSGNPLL
Setting: whole hairpin DNA, median over replicate spots
`GGTCGTCAAAGCCTCCTGGCTTTGACGACC` gave a median fluorescence of 10700 a.u.
For `GGTCGTTCAAGCCTCCTGGCTTGAACGACC`, the median fluorescence was 10400 a.u.
`GGTCGTACGAGCCTCCTGGCTCGTACGACC (5mC at 15 29)` gave a median fluorescence of 10000 a.u.
For `GGTCGGTAAAGCCTCCTGGCTTTACCGACC`, the median fluorescence was 10700 a.u.
With `GGTCGCGAAAGCCTCCTGGCTTTCGCGACC (5mC at 13 31)` the median fluorescence was 10400 a.u.
`CGTCGTTAAAGCCTCCTGGCTTTAACGACG (5mC at 36)` gave a median fluorescence of 9020 a.u.
`GGTCGTTAGAGCCTCCTGGCTCTAACGACC (5mC at 29)` gave a median fluorescence of 11400 a.u.
`GGTCGTTACGGCCTCCTGGCCGTAACGACC (5mC at 16)` gave a median fluorescence of 10600 a.u.

Other studies, line by line
`CEP43 (Homo sapiens, UniProt O95684)`: cross-linked residues “K184 to M1” (LAMP5 (Homo sapiens, UniProt Q9UJQ1); cross-linking MS; cells; together with: BSPNO).
